{"data": "Measurements pooled from the literature", "note": "Numbered parts are unrelated; each lists some results of a single study."}
{"data": "Set 1", "target": "Interferon regulatory factor 5, full length, phosphomimetic (IRF5, Homo sapiens, UniProt Q13568-2, residues 1-514, S451D/S453D/S456D/S462D)", "technique": "protein-binding microarray", "form": "double-stranded DNA, one strand shown", "matrix": "in vitro", "concentration": "940 nM top", "notes": "60-bp whole probe", "together with": "salmon DNA 0.4 mg/ml", "baseline": "random background probes", "reading": "higher = stronger binding", "constant ends, left off below": "GCCTAGCAC … GTCTTGATTCGCTTGACGCTGCTG"}
{"Oligonucleotide": "CTAGGTTTCGACTTTCGGTTAGTGCTA", "fitted relative affinity [z-score]": 7.7}
{"Oligonucleotide": "CACATTCTCTGCTTGGGTCTGTGCTAG", "fitted relative affinity [z-score]": 0.96}
{"Oligonucleotide": "CTTAGCATGGGGAGGGAGCAGTGCTAG", "fitted relative affinity [z-score]": 1.34}
{"Oligonucleotide": "GACGGTTTGGACTATCGGGACGTGCTA", "fitted relative affinity [z-score]": -0.443}
{"Oligonucleotide": "GGCGGTCTCCTTATCCTGACGTGCTAG", "fitted relative affinity [z-score]": 0.522}
{"Oligonucleotide": "TTAGATTTCAGTTCCGACTAGTGCTAG", "fitted relative affinity [z-score]": 1.23}
{"Oligonucleotide": "TTAGGTATCGACACTGGTTTAGTGCTA", "fitted relative affinity [z-score]": 4.83}
{"Oligonucleotide": "TTAGCTATCAGTATCGATTAGTGCTAG", "fitted relative affinity [z-score]": 4.52}
{"data": "Set 2", "target": "RNA binding protein fox-1 homolog 2, RRM domain, GST-SBP tag (RBFOX2, Homo sapiens, UniProt O43251-10, residues 100-194)", "technique": "RNA Bind-n-Seq", "form": "RNA", "matrix": "in vitro", "concentration": "365 nM", "notes": "natural RNA segment, single round, ends assumed", "baseline": "no-protein control", "reading": "higher = stronger binding"}
{"Oligonucleotide": "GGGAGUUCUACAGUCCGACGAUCUAUCGUUCAUAAAUGUGUCUGGGGGCUUCCUUGUUUGGAAAAUAUGGAUAUCGCUUUGUUUUCCUUUGAAAGUAAUUAUAUCUUAAGAACAUAGUAUCAUGAAUGGAGUAUGGAAUUCUCGGGUGCCAA", "RBNS enrichment (R)": 1.7}
{"Oligonucleotide": "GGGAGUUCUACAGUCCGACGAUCCGGGGCUCUCCCUCCUCCUGCCAUCCUCCCCUCCCGCCCUUCCUGGCUACCUCCUCUGACAUGCGGUCAGAUAAGUCCCGUCUUGUUUGUGAGUACCACAGAAACGCCUGUGGAAUUCUCGGGUGCCAA", "RBNS enrichment (R)": 1.05}
{"Oligonucleotide": "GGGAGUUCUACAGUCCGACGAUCAUGGGGAAGUCCUGGGUGUGGGGACACAGUCGGGUUGACCCAGGGCUGUCUCCCUCCAGAGCCUCCCUCCGGACAAUGAGUCCCCCCUCUUGUCUCCCACCCUGAGAUUGUGGAAUUCUCGGGUGCCAA", "RBNS enrichment (R)": 0.44}
{"Oligonucleotide": "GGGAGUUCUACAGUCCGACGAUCAAGUCAAAGUAGAAACCCUCCAGUGUUUGGUGUUGUGUAGAGAAUAGGACAUAGGGUAAAGAGGCCAAGCUGCCUGUAGUUAGUAGAGAAGAAUGGAUGUGGUUCUUCUUUGGAAUUCUCGGGUGCCAA", "RBNS enrichment (R)": 1.84}
{"Oligonucleotide": "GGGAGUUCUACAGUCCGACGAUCUAGACUGAGAUCUGGGACUGUGUUGGGACCAUUCAGGUGAUAUGUCACUUCCACAAAUGGCAUCUCCAAGUAAGCUGUCACCUGGUACACAUGGAGGUGGAGCCUGCAGCUGGAAUUCUCGGGUGCCAA", "RBNS enrichment (R)": 0.746}
{"Oligonucleotide": "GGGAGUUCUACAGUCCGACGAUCUGGGGCUCAGGCCAGUGGGUGUGGGAUGGGCCAUCUGCAGGAUAGACCUGGCAAGUCCCCUCUGAUACCCCCAAGCCAGCCAGCCGGGUCCCCCAGGGGUCAGGACAGAAUGGAAUUCUCGGGUGCCAA", "RBNS enrichment (R)": 0.44}
{"Oligonucleotide": "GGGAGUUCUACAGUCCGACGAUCGAAAGGGCAGGCCCAACGGCUGAGAUUGACAUUUCCACUGUUGGUAGAGAGCUGUUAUUUCUAAAGGGGAAACCAGCUUUCUGUUCCAAAUGGAAGUUAGGUGAGGAGUUUGGAAUUCUCGGGUGCCAA", "RBNS enrichment (R)": 0.475}
{"Oligonucleotide": "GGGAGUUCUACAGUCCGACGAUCUUUUUUAUGGUUAAAAGUAACUUUUGUAGUUUAAAAAAAUCUUUCCUCUUUCAUAUAAAUAAGAAGUGGAAAUUGCCUUUUUAUUGUGUAAUGUAGAAAACCCUCAAGUGUGGAAUUCUCGGGUGCCAA", "RBNS enrichment (R)": 0.636}
{"data": "Set 3", "target": "Histone acetyltransferase KAT6A, winged helix 1, GST fusion (KAT6A, Homo sapiens, UniProt Q92794, residues 1-85)", "technique": "protein binding microarray", "form": "double-stranded DNA, one strand shown", "matrix": "in vitro", "concentration": "not given", "notes": "8-mer, flanks averaged, mean of 2 arrays, mostly near background", "baseline": "not given", "reading": "higher = stronger binding", "Target sequence (chain)": "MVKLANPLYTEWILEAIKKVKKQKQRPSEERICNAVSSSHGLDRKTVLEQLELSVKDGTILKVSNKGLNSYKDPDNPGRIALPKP"}
{"Oligonucleotide": "ATCTCCCG", "E-score": 0.259}
{"Oligonucleotide": "ACGTCGCT", "E-score": 0.151}
{"Oligonucleotide": "CCAAATTC", "E-score": -0.25}
{"Oligonucleotide": "ACCCACAT", "E-score": -0.227}
{"Oligonucleotide": "ATCGCCCG", "E-score": 0.316}
{"Oligonucleotide": "CATCCAGC", "E-score": 0.00932}
{"Oligonucleotide": "ACACATTG", "E-score": -0.0478}
{"Oligonucleotide": "GAACCCAA", "E-score": -0.175}
{"Oligonucleotide": "GGGTTCCA", "E-score": 0.0435}
{"Oligonucleotide": "GACTACTA", "E-score": -0.0613}
{"Oligonucleotide": "CGACACCG", "E-score": 0.334}
{"Oligonucleotide": "CGGATACC", "E-score": 0.175}
{"Oligonucleotide": "AGATGGTA", "E-score": -0.191}
{"Oligonucleotide": "CACTGACG", "E-score": 0.0536}
{"Oligonucleotide": "AACCAGAC", "E-score": -0.137}
{"Oligonucleotide": "GAGTACAC", "E-score": -0.00345}
{"Oligonucleotide": "CCCAGTGC", "E-score": -0.0926}
{"Oligonucleotide": "ACCTGCCA", "E-score": -0.189}
{"Oligonucleotide": "CGACCTGA", "E-score": -0.137}
{"Oligonucleotide": "CATAGAAA", "E-score": -0.16}
{"Oligonucleotide": "GGGATCAC", "E-score": -0.0295}
{"Oligonucleotide": "TGATACAA", "E-score": -0.0535}
{"Oligonucleotide": "CGAAATTA", "E-score": -0.0937}
{"Oligonucleotide": "ACACCTCA", "E-score": -0.144}
{"Oligonucleotide": "CCAATGCG", "E-score": 0.161}
{"data": "Set 4", "target": "TAR DNA-binding protein 43, full length, His tag (TARDBP, Homo sapiens, UniProt Q13148, residues 1-414)", "technique": "RNA Bind-n-Seq", "form": "RNA", "matrix": "in vitro", "concentration": "20 nM", "notes": "6-mer, flanks averaged, single round", "together with": "150 mM LiCl", "baseline": "input library", "reading": "higher = stronger binding"}
{"Oligonucleotide": "CAGUGU", "6-mer enrichment (R)": 1.17}
{"Oligonucleotide": "AACAGA", "6-mer enrichment (R)": 0.796}
{"Oligonucleotide": "AUCUCU", "6-mer enrichment (R)": 0.865}
{"Oligonucleotide": "AAGGAC", "6-mer enrichment (R)": 0.873}
{"Oligonucleotide": "CGCAGG", "6-mer enrichment (R)": 0.959}
{"Oligonucleotide": "CGAACU", "6-mer enrichment (R)": 0.855}
{"Oligonucleotide": "GCGUGC", "6-mer enrichment (R)": 1.13}
{"Oligonucleotide": "UCUGGC", "6-mer enrichment (R)": 0.899}
{"data": "Further values, each from its own experiment"}
{"Substance": "PhoQ, residues 284 288 289 292 302 303 NLALSC", "target": "PhoP, residues 12 14 15 18 19 VHTVL (Escherichia coli, UniProt P23836)", "test": "Sort-seq, item: YFP reporter", "system": "E. coli", "conditions": "PhoQ-PhoP variant library, together with: 10 µM Mg2+", "how to read": "baseline: high Mg2+ state, higher = stronger signaling", "endpoint": "fold induction", "value": 1.1}
{"note": "Excerpt of the above (set 1):"}
{"Oligonucleotide": "GACGGTTTGGACTATCGGGACGTGCTA", "fitted relative affinity [z-score]": -0.443}
{"Oligonucleotide": "GGCGGTCTCCTTATCCTGACGTGCTAG", "fitted relative affinity [z-score]": 0.522}
{"Oligonucleotide": "CTAGGTTTCGACTTTCGGTTAGTGCTA", "fitted relative affinity [z-score]": 7.7}
{"Oligonucleotide": "CACATTCTCTGCTTGGGTCTGTGCTAG", "fitted relative affinity [z-score]": 0.96}
{"Oligonucleotide": "TTAGCTATCAGTATCGATTAGTGCTAG", "fitted relative affinity [z-score]": 4.52}
{"Oligonucleotide": "TTAGATTTCAGTTCCGACTAGTGCTAG", "fitted relative affinity [z-score]": 1.23}
{"Oligonucleotide": "CTTAGCATGGGGAGGGAGCAGTGCTAG", "fitted relative affinity [z-score]": 1.34}
